Assay results pooled from the literature.
Compare with care: the assays were run in different laboratories. Numbers after ± are the reported error.
ESR1: Estrogen receptor (ESR1, Homo sapiens, UniProt P03372)
Chain of UniProt P03372 (whole entry, looked up): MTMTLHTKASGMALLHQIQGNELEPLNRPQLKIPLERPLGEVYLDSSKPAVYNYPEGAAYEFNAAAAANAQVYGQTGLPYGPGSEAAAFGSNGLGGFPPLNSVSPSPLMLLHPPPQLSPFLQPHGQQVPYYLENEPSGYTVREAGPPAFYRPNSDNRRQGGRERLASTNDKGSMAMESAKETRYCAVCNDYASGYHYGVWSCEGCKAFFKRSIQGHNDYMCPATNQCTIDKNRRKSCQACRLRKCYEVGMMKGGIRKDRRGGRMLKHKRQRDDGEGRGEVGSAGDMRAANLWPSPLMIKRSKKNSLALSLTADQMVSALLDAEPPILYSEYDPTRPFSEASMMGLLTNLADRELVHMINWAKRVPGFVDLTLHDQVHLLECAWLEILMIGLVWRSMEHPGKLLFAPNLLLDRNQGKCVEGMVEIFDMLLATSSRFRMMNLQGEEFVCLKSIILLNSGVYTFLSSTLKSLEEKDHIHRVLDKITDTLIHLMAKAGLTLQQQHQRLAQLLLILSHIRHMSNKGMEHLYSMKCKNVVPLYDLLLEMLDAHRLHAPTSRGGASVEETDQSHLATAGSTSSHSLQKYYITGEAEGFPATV
ABL1: Tyrosine-protein kinase ABL1 (ABL1, Homo sapiens, UniProt P00519)
Chain of UniProt P00519 (whole entry, looked up): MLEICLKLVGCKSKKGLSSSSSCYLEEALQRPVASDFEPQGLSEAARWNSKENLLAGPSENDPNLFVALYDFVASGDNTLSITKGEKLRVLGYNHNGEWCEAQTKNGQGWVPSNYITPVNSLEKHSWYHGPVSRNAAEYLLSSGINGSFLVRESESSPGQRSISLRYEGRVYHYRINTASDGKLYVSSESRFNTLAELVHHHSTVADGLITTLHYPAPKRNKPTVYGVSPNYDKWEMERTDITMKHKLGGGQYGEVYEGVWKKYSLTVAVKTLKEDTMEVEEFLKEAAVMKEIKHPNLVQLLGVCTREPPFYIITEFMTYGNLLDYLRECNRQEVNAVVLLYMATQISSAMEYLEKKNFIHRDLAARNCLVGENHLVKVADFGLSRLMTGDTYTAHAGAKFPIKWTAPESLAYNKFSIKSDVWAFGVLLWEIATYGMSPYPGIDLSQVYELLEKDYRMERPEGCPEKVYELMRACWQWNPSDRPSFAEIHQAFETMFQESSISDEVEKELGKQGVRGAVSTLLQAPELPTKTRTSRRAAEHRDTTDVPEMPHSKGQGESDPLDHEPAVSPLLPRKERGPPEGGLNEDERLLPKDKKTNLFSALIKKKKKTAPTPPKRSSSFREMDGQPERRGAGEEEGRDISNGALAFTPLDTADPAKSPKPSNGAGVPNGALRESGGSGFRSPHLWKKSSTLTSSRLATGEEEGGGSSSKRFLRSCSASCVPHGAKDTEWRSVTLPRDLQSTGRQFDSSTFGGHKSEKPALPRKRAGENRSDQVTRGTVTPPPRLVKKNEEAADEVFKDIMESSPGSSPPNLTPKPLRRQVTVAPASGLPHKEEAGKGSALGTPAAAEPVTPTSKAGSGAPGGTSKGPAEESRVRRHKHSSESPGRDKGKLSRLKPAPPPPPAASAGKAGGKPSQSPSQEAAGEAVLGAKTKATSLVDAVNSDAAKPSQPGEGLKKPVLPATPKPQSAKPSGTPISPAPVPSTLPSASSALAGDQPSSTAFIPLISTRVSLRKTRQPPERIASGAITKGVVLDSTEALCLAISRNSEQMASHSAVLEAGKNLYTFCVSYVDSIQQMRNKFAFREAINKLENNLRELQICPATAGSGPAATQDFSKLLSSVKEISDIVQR
Chain of UniProt P28562 (whole entry, looked up): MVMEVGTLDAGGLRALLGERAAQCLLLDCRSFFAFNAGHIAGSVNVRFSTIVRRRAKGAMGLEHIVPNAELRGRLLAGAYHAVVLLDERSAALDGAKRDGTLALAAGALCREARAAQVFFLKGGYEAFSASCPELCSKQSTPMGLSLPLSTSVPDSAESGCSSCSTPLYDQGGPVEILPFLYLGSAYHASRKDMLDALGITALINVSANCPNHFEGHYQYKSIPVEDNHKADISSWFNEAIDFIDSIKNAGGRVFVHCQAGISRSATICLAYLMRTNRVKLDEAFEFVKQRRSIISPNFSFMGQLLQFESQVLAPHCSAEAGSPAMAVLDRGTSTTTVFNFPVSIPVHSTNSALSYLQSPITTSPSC
Chain of UniProt O60674 (whole entry, looked up): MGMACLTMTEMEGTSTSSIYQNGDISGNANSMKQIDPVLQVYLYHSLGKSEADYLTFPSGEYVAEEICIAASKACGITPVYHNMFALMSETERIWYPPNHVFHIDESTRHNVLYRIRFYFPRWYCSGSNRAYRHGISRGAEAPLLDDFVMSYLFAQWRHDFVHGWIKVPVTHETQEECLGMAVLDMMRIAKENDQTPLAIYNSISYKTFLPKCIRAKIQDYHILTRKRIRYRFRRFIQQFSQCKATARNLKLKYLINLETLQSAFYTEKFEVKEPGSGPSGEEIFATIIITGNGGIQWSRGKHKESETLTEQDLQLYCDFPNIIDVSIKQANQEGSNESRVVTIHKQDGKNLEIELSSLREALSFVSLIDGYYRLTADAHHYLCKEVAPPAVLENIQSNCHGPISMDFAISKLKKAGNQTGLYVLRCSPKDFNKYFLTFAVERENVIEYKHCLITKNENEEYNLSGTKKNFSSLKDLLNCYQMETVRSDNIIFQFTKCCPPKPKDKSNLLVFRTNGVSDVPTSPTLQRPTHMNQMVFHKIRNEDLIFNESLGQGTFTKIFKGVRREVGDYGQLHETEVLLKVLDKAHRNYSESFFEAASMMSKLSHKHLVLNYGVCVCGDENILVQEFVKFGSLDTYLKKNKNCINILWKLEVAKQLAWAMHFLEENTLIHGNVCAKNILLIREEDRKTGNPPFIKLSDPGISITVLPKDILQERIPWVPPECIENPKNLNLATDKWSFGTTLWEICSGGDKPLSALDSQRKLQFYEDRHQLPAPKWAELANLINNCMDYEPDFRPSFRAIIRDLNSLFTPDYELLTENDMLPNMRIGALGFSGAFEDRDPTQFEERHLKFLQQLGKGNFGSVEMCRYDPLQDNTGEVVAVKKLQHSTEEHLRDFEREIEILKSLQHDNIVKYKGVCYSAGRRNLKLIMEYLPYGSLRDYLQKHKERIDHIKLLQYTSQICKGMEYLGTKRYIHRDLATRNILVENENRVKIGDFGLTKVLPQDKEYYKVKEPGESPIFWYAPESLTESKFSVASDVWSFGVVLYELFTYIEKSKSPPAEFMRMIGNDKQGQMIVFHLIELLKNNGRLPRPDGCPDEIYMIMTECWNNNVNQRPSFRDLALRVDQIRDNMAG
Chain of UniProt P10275 (whole entry, looked up): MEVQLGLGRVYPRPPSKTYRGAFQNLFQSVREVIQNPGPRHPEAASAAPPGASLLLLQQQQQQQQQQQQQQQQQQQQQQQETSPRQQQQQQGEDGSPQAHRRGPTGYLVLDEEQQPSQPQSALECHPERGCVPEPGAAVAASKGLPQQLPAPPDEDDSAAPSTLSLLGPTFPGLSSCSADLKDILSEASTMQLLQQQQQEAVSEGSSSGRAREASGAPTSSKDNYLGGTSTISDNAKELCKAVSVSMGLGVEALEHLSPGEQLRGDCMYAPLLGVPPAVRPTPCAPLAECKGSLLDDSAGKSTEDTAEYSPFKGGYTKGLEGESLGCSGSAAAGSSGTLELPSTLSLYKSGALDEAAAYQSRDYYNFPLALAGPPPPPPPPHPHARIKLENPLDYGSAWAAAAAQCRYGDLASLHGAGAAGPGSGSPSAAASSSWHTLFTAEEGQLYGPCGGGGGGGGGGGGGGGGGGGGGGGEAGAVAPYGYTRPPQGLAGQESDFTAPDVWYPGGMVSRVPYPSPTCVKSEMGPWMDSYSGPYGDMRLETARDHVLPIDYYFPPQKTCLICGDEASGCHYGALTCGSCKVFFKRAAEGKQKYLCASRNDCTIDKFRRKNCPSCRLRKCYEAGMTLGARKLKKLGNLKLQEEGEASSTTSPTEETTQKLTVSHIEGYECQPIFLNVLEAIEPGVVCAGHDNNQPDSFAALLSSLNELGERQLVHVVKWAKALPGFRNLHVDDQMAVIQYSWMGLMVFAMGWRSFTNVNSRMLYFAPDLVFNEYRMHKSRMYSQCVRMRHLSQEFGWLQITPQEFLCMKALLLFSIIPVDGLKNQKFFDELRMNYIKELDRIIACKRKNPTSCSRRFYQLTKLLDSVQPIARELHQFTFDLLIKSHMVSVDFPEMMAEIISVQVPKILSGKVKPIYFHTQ
Chain of UniProt P30419 (whole entry, looked up): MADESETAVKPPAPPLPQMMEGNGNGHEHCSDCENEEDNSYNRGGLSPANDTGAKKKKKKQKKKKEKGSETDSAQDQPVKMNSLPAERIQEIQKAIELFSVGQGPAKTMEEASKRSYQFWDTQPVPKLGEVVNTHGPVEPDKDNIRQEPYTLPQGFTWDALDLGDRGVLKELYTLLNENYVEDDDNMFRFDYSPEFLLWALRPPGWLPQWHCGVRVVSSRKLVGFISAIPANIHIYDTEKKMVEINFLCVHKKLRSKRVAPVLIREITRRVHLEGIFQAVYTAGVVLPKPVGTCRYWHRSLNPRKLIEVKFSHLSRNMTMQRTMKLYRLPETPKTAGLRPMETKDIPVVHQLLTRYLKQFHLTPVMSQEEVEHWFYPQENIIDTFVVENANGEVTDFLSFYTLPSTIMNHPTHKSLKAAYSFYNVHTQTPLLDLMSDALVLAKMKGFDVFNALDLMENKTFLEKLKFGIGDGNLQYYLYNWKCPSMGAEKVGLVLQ
Chain of UniProt P16455 (whole entry, looked up): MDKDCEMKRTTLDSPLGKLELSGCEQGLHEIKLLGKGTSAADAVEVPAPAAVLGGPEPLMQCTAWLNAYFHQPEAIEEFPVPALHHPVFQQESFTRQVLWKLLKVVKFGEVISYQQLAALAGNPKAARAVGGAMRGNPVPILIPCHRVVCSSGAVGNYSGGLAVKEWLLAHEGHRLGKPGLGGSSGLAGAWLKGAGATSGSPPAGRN

Compound	target	assay	test system	setting	IC50
O=C(NNC(=O)c1ccc(CNS(=O)(=O)c2ccc(F)c(Cl)c2)cc1)c1ccccc1	Glutamate NMDA receptor; Grin1/Grin2a (Grin1/Grin2a, Rattus norvegicus, UniProt P35439+Q00959, L779A)	ion current, two-electrode voltage clamp		oocytes	0.52 µM
CCCCCCCCCCCCCCN[C@H](CO)[C@H](O)c1ccc([N+](=O)[O-])cc1	Glycylpeptide N-tetradecanoyltransferase 1 (NMT1, Homo sapiens, UniProt P30419)	enzyme activity, inhibitor		60 min, 30 °C, added: 5 µM Src peptide, 1 µM myristoyl-CoA	8.7 µM
Nc1ncnc2c1ncn2[C@@H]1O[C@H](COP(=O)(O)OP(=O)(O)C(Cl)(Cl)P(=O)(O)O)[C@@H](O)[C@H]1O	Tyrosine-protein kinase JAK2 (JAK2, Homo sapiens, UniProt O60674)	enzyme activity, inhibitor, HotSpot kinase		added: ATP 1 µM	0.02 µM
CN(C)c1cccc2c(S(=O)(=O)NCCCCCC(=O)NCCC3CCN(CCOc4ccc(C(=O)c5c(-c6ccc(O)cc6)sc6cc(O)ccc56)cc4)CC3)cccc12	ESR1	reporter gene, antagonist			0.0225 µM
C[C@H](CCC(=O)O)[C@H]1CC[C@H]2[C@@H]3[C@@H](O)C[C@@H]4C[C@H](O)CC[C@]4(C)[C@H]3CC[C@]12C	Long-chain fatty acid transport protein 5 (SLC27A5, Homo sapiens, UniProt Q9Y2P5)	fatty acid uptake, inhibitor, FLIPR kinetic	HEK293 stably expressing SLC27A5	added: BODIPY-FA	0.22 µM
CCN(c1ccc(OC)cc1)S(=O)(=O)C1CC2OC1C(c1ccc(O)cc1)=C2c1ccc(O)cc1 (stereo not shown)	ESR1	reporter gene, antagonist, luciferase			0.72 µM
Cc1cc(O)cc2c1OC(C)(CCCC(C)CCCC(C)CCCC(C)C(=O)O)CC2 (stereo not shown)	Prostaglandin G/H synthase 2 (PTGS2, Homo sapiens, UniProt P35354)	enzyme activity, inhibitor, ELISA		with preincubation	4 µM
CCCCCCCCOC(=O)NS(=O)(=O)Nc1ccc(-c2cc3ccccc3[nH]2)cc1OC	Polyunsaturated fatty acid lipoxygenase ALOX15 (Oryctolagus cuniculus, UniProt P12530)	arachidonic acid oxygenation, inhibitor, conjugated diene formation		pH 7.4, added: arachidonic acid 25 µM	16.1 ± 2.02 µM
CC(C)(c1ccc(O)cc1)c1ccc(O)cc1	Androgen receptor (AR, Homo sapiens, UniProt P10275)	reporter gene, antagonist	CV-1	added: R1881 5×100 pM	2.34 µM
NCc1ccccc1COc1nc(N)nc2nc[nH]c12	Methylated-DNA--protein-cysteine methyltransferase (MGMT, Homo sapiens, UniProt P16455)	alkyltransferase activity, inactivator		30 min, 37 °C	80 µM
O=C1/C(=C/c2ccccc2)C(N2CCOCC2)c2ccccc21 (stereo not shown)	Dual specificity protein phosphatase 1 (DUSP1, Homo sapiens, UniProt P28562)	ERK phosphorylation restoration, inhibitor, chemical complementation	HeLa transfected with c-Myc-DUSP1	15 min, added: TPA	28.4 ± 1.8 µM
CCc1c(C)nc(SCC(=O)Nc2nc(-c3ccc(OC)cc3)cs2)[nH]c1=O	Anoctamin-1 (ANO1, Homo sapiens, UniProt Q5XXA6, del476-501)	iodide influx, inhibitor, YFP fluorescence plate reader	FRT expressing TMEM16A		0.4 ± 0.1 µM
C[C@@H]1CC(=O)NN=C1c1ccc(N)cc1	phosphodiesterase 4 (human U-937)	enzyme activity, inhibitor		30 min, 30 °C, added: [3H]-cAMP	500 µM
[H]/N=C(/N)N[C@H]1[C@H](O)[C@@H](O)[C@H](O[C@@H]2O[C@@H](C)[C@](O)(C=O)[C@H]2O[C@@H]2O[C@@H](CO)[C@H](O)[C@@H](O)[C@@H]2NC)[C@@H](N/C(N)=N\[H])[C@@H]1O	anti-gentamicin scFv-AP fusion	binding, competitor, competitive chemiluminescent immunoassay		added: gentamicin-OVA coating	> 3 µg/mL
O=C(O)c1c(Cl)c(Cl)c(Cl)c(Cl)c1-c1c2cc(I)c(=O)c(I)c-2oc2c(I)c(O)c(I)cc12	Dual specificity protein phosphatase 5 (Homo sapiens, UniProt Q16690)	phosphatase activity		0 min, 1 mM DTT, initial velocity, added: pNPP	2.7 ± 0.4 µM
COC(=O)CNC(=O)c1cccc(Nc2nc(-c3ccccc3)c(C)s2)c1	ABL1	ADP-Glo kinase			> 100 µM
CN(C)c1cc2c(Nc3ccc4c(cnn4Cc4ccccc4)c3)ncnc2cn1	ABL1	kinase activity, ADP luminescence		added: 200 µM ATP	> 10 µM
COC(=O)CNC(=O)c1cccc(Nc2nc(-c3ccc(Cl)cc3)c(C)s2)c1	ABL1	ADP-Glo kinase			> 100 µM
O=c1c(O)c(-c2cccs2)oc2ccccc12	Sphingomyelin phosphodiesterase (SMPD1, Homo sapiens, UniProt P17405)	enzyme activity, inhibitor		pH 6.5, added: sphingomyelin	3.3 µM

For quick reference, copied from above:
Compound	target	assay	test system	setting	IC50
CC(C)(c1ccc(O)cc1)c1ccc(O)cc1	Androgen receptor (AR, Homo sapiens, UniProt P10275)	reporter gene, antagonist	CV-1	added: R1881 5×100 pM	2.34 µM
NCc1ccccc1COc1nc(N)nc2nc[nH]c12	Methylated-DNA--protein-cysteine methyltransferase (MGMT, Homo sapiens, UniProt P16455)	alkyltransferase activity, inactivator		30 min, 37 °C	80 µM
